Experimental data of several laboratories.
Each line is one published result; not all experiments were run side by side. Values joined by “and” are separate records of one study, mostly repeats; a detail may differ. Numbers after ± are the reported error.
Gria1/Gria2: Glutamate receptor AMPA 1/2 (Gria1/Gria2, Rattus norvegicus, UniProt P19490+P19491)
GAP50: Glideosome-associated protein 50 (GAP50, Plasmodium falciparum, UniProt Q8I2X3)
Sodium- and chloride-dependent glycine transporter 2: Sodium- and chloride-dependent glycine transporter 2 (Homo sapiens, UniProt Q9Y345)

| SMILES | tested on | assay | system | conditions | scale | endpoint | result |
| --- | --- | --- | --- | --- | --- | --- | --- |
| COC(=O)Cc1cc2c(cc1C(=O)c1cccc(I)c1)OCO2 | Gria1/Gria2 | glutamate-evoked current, whole-cell patch clamp | HEK-293T | concentration not given, weighted tau, 500 ms pulse, together with: glutamate | – | desensitization time constant | 5.3 ± 0.4 ms |
| CCn1ncc(CN2CCCC(C(=O)c3cccc(OC(C)C)c3)C2)c1C (stereo not drawn) | Trypanosoma cruzi | reporter mRNA translation, inhibitor, item: capped polyadenylated Renilla luciferase mRNA | cell-free extract | concentration not given | reference: control RNA | relative translation | 108% |
| CC1(C)C[C@@H](Nc2cccc(-c3sc(C(=O)O)c(OCC(=O)O)c3Cl)c2)CCN1S(=O)(=O)Cc1cccc(NC(=O)CN2CCC(c3ccc4c(c3)oc(=O)n4C3CCC(=O)NC3=O)CC2)c1 (stereo partly drawn) | Tyrosine-protein phosphatase non-receptor type 2 (PTPN2, Homo sapiens, UniProt P17706, H30A/P33A/R35A) | degrader, bio-layer interferometry | – | 15.6 nM | higher = more binding | BLI binding response | 0.0555 a.u. |
| Cc1ccc2c(c1)C1CC(C)(N2)c2c(C)nc3ccc(C)cc3c21 (stereo not drawn) | GAP50 | differential scanning fluorimetry | – | – | – | ΔTm | -3 °C |
| CC(C)Oc1cc(Cl)ccc1CNc1cc(-c2ccccc2)nc2ncnn12 | G-protein coupled receptor 3 (GPR3, Homo sapiens, UniProt P46089, I200W) | cAMP GloSensor | human cells | 1 µM | higher is more cAMP | cAMP luminescence | 34200 a.u. and 41300 a.u. and 31600 a.u. and 48700 a.u. |
| C=CC(=O)N1CCCC(n2c(=O)c3ncccc3n(Cc3ccc(Oc4ccccc4)cc3)c2=O)C1 (stereo not drawn) | Acetyl-CoA acetyltransferase, cytosolic (Homo sapiens, UniProt Q9BWD1) | thermal proteome profiling, item: ACAT2 | – | treated | – | melting temperature | 52.9 °C and 53.1 °C |
| COC(=O)[C@@]1(C)C=C(C(=O)Nc2cccc(C(=O)Nc3ccc(Nc4nccc(-c5cccnc5)n4)c(C)c3)c2)C(=O)CC1 | Mitogen-activated protein kinase 8 (MAPK8, Homo sapiens, UniProt P45983, C116S) | noncovalent binding, SPR | – | 100, 300, 1000 nM, two-step kinetic model | – | kon | 190000 M⁻¹ s⁻¹ |
| COC(=O)Cc1cc2c(cc1C(=O)c1ccccc1I)OCO2 | Gria1/Gria2 | glutamate-evoked current, whole-cell patch clamp | HEK-293T | concentration not given, weighted tau, 500 ms pulse, together with: glutamate | – | desensitization time constant | 5 ± 0.3 ms |
| CCc1ccc(CN2CCCC(CNC(=O)c3cccc(OC)c3OC)C2)cc1 (stereo not drawn) | Trypanosoma cruzi | reporter mRNA translation, inhibitor, item: capped polyadenylated Renilla luciferase mRNA | cell-free extract | concentration not given | reference: control RNA | relative translation | 112% |
| CC(=O)c1cnc(NS(=O)(=O)c2ccc(C(F)(F)F)c(Cl)c2)nc1 | 17-beta-hydroxysteroid dehydrogenase 13 (Homo sapiens, UniProt Q7Z5P4) | enzyme activity | human hepatocytes, HSD17B13 siRNA, culture medium | 120 h | reference: scramble siRNA control | oxidized product ratio | 0.247 and 0.257 and 0.271 and 0.239 |
| COc1ccc(C2(C(=O)N3CCC(Nc4nc5ccccc5c(=O)[nH]4)CC3)CC2)cc1 | MRGPRD (Homo sapiens, UniProt Q8TDS7) | miniGq recruitment, agonist, BRET1 | HEK293T | – | reference: wild type | Emax | 91.5 ± 2.36% |
| CCCCCC(O)/C=C/C=O (stereo not drawn) | DNA polymerase delta subunit 2 (Homo sapiens, UniProt P49005) | competitive isoTOP-ABPP, item: POLD2 cysteine peptide | Ramos soluble proteome | 100 µM, together with: iodoacetamide probe | reference: DMSO over compound-treated, higher = stronger cysteine blockade | isoTOP-ABPP competition ratio | 1.2 |
| CC(C)=CC1OC(C)(C)C2C=C3C(=O)C(Cl)=CC(O)C3C3C(O)C4OC4C(=O)C132 (stereo not drawn) | Tyrosine-protein kinase ABL1, non-phosphorylated (ABL1, Homo sapiens, UniProt P00519) | cell-free assay, competition with immobilised ligand | – | 10 µM | – | remaining binding | 67% |
| CCCCCCCCCCCCCCCc1cccc(OCC)c1C(=O)Nc1ccc(Cl)c(C(F)(F)F)c1 | Histone acetyltransferase KAT5 (KAT5, Homo sapiens, UniProt Q92993) | SPR | – | 5.56 µM | higher = more binding | SPR binding response | 0.216 RU |
| O=C(NC[C@@H](Cc1ccc(F)cc1)N1CCC(O)(C(F)(F)F)CC1)C1(c2ccc(Cl)cc2)CCCC1 | Transient receptor potential cation channel subfamily A member 1 (TRPA1, Homo sapiens, UniProt O75762, V875A) | calcium influx, agonist | – | – | reference: V875A mutant over wild type | EC50 fold change | 2.1 |
| COC(=O)C1CNCCC1SCCC=C(c1ccccc1)c1ccccc1 (stereo not drawn) | Sodium- and chloride-dependent glycine transporter 2 | MS binding competition | – | 10 µM | – | remaining specific binding | 81.7 ± 9% |
| O=C1c2sc(-c3ccc(N4CCC(CO)CC4)nc3F)nc2CCN1c1cccnc1 | TAR DNA-binding protein 43, aggregated (TARDBP, Homo sapiens, UniProt Q13148) | radioligand binding | control brain sarkosyl-insoluble extract | 9.68 nM | – | specific binding | -0.017 nM |
| CC(=O)NCCCC[C@H](NC(=O)[C@H](C)NC(=O)[C@H](CCCNC(=N)N)NC(=O)[C@H](C)NC(=O)[C@H](CCCCN)NC(=O)CNC(=O)CNC(=O)[C@H](CCC(N)=O)NC(=O)[C@H](CCCCN)NC(=O)CNC(=O)[C@H](CCCNC(=N)N)NC(=O)CNC(=O)[C@@H](N)CO)C(=O)N[C@@H](C)C(=O)N[C@@H](CCCCN)C(=O)N[C@@H](CO)C(=O)N[C@@H](CCCNC(=N)N)C(=O)N[C@@H](CO)C(=O)N[C@@H](CO)C(=O)O | YEATS domain-containing protein 4, YEATS domain (Homo sapiens, UniProt O95619) | isothermal titration calorimetry | – | concentration not given, pH 7.6, 25 °C, together with: histone peptide | – | binding stoichiometry | 1 |
| CCCCCCCCCCCCCCCC(=O)OCC(CSC[C@H](N)C(=O)N[C@@H](CO)C(=O)N[C@@H](CCCCN)C(=O)N[C@@H](CCCCN)C(=O)N[C@@H](CCCCN)C(=O)N[C@@H](CCCCN)C(=O)NCCCCCC(=O)N[C@@H](CCCCN)C(=O)N[C@@H](CC(C)C)C(=O)N[C@H](C(=O)N[C@@H](Cc1ccccc1)C(=O)N[C@@H](Cc1ccccc1)C(=O)N[C@@H](Cc1ccc2ccccc2c1)C(=O)O)C(C)C)OC(=O)CCCCCCCCCCCCCCC (stereo partly drawn) | Amyloid-beta precursor protein, fibrillar amyloid-beta (APP, Homo sapiens, UniProt P05067) | TEM | – | 2.0 eq, 18 h, fibril 1, together with: APP 20 µM | – | fibril diameter | 23.2 nm |
| Cc1cc(C)cc(COc2cc3c(cc2OCc2cc(C)cc(C)c2)C2CC(O)(Cc4cn(CCOCCOCCNC(=O)CCCCC5SCC6NC(=O)NC65)nn4)CC(C)N2CC3)c1 (stereo not drawn) | 26S proteasome regulatory subunit 8 (Homo sapiens, UniProt P62195) | biotinylated probe pull-down, item: PSMC5 | – | 10 µM probe | reference: heavy over light | SILAC ratio | 1.64 |
| CC(C)[C@@H]1NC(=O)[C@H](Cc2ccccc2)NC(=O)CSC[C@@H](C(N)=O)NC(=O)[C@H](CCC(=O)O)NC(=O)[C@H](CO)NC(=O)[C@H](Cc2c[nH]c3cccc(Cl)c23)NC(=O)[C@H](C2CCCCC2)NC(=O)[C@H](C(C)C)NC(=O)[C@H](Cc2ccc(O)cc2)NC(=O)[C@H](CC(=O)O)NC(=O)[C@H](Cc2c[nH]c3ccccc23)NC(=O)[C@H](Cc2ccc(N)nc2)NC(=O)[C@H](Cc2c[nH]c3ccc(Cl)cc23)NC(=O)[C@H](CCC(=O)O)NC1=O | Interleukin-1 receptor-like 2 (IL1RL2, Homo sapiens, UniProt Q9HB29) | reporter gene (SEAP), inhibitor, HEK-Blue IL-36R reporter | HEK-Blue IL-36R cells | 100 µM, 6 h, together with: IL-36γ 100 ng/mL | – | remaining activity | 32.2% |
| C#CCCCCNC(=O)c1ccc(N(C(=O)C=C)c2ccc(Br)cc2)cc1 | Beta-secretase 2 (BACE2, Homo sapiens, UniProt Q9Y5Z0) | mass spectrometry profiling | H460 cell lysate | 100 µM over 10 µM, UniProt Q9Y5Z0 | reference: high over low concentration | reactivity ratio | 1.47 |
| O=C(O)Cc1cc2c(cc1C(=O)c1ccccc1Br)OCO2 | Gria1/Gria2 | whole-cell patch clamp | HEK-293T | concentration not given, together with: glutamate | – | desensitization time constant | 3.8 ± 0.3 ms |
| N#CN1CC[C@H](C(=O)Nc2nc3c(s2)CN(C(=O)Cn2cc(CNC(=O)CCCC[C@@H]4SC[C@@H]5NC(=O)N[C@@H]54)nn2)CC3)C1 | Elongation factor 1-alpha 1 (EEF1A1, Homo sapiens, UniProt P68104) | probe binding, affinity probe, neutravidin pull-down LC-MS/MS | HEK293T, cell lysate | 5 µM, 1 h, mean of three replicates, unit not given | higher = more pulled down | iBAQ abundance | 6.35e+08 |
| CN(C)CCCSC(=S)N1CCN(C(=O)/C=C/c2coc3ccccc3c2=O)CC1 | Nucleoprotein (N, Tomato spotted wilt virus, UniProt P25999) | binding, microscale thermophoresis | – | 3.906 µM | dose series | normalised MST response | 0.0404 |
| OC[C@H]1c2[nH]cnc2[C@H](O)[C@@H](O)[C@@H]1O | bglA (Thermotoga maritima, UniProt Q08638) | ITC | – | pH 5.8, 25 °C | – | ΔG | -6.07 ± 0.215 kcal/mol |
| CCCCC1CCNCC1C(=O)O (stereo not drawn) | Sodium- and chloride-dependent glycine transporter 2 | MS binding competition | – | 10 µM | – | remaining specific binding | 99.1 ± 6.6% |
| Cc1cc(C(c2ccc(Cl)cc2)c2ccc(Cl)cc2)c2nccc(C)c2c1 | GAP50 | differential scanning fluorimetry | – | – | – | ΔTm | -1 °C |
| CCCCCC=CC=C1C(=O)C=CC1CC=CCCCC(=O)O (stereo not drawn) | D-3-phosphoglycerate dehydrogenase (PHGDH, Homo sapiens, UniProt O43175) | competitive isoTOP-ABPP | Ramos soluble proteome | 100 µM, 60 min, together with: iodoacetamide probe | reference: DMSO over compound-treated, higher = stronger cysteine blockade | isoTOP-ABPP competition ratio | 7 |
| O=C1C[C@H](c2nc(-c3ccc(F)c4cn[nH]c34)no2)CCCN1c1ccc(F)cc1 (racemic) | Cannabinoid receptor 2 (CNR2, Homo sapiens, UniProt P34972, F281A) | GloSensor cAMP | – | concentration not given, CB2 mutant | reference: mutant over wild type | fold change | 27.6 |

Excerpt of the above:
| SMILES | tested on | assay | system | conditions | scale | endpoint | result |
| --- | --- | --- | --- | --- | --- | --- | --- |
| CCCCCC(O)/C=C/C=O (stereo not drawn) | DNA polymerase delta subunit 2 (Homo sapiens, UniProt P49005) | competitive isoTOP-ABPP, item: POLD2 cysteine peptide | Ramos soluble proteome | 100 µM, together with: iodoacetamide probe | reference: DMSO over compound-treated, higher = stronger cysteine blockade | isoTOP-ABPP competition ratio | 1.2 |
| CC(C)=CC1OC(C)(C)C2C=C3C(=O)C(Cl)=CC(O)C3C3C(O)C4OC4C(=O)C132 (stereo not drawn) | Tyrosine-protein kinase ABL1, non-phosphorylated (ABL1, Homo sapiens, UniProt P00519) | cell-free assay, competition with immobilised ligand | – | 10 µM | – | remaining binding | 67% |
| CCCCCCCCCCCCCCCc1cccc(OCC)c1C(=O)Nc1ccc(Cl)c(C(F)(F)F)c1 | Histone acetyltransferase KAT5 (KAT5, Homo sapiens, UniProt Q92993) | SPR | – | 5.56 µM | higher = more binding | SPR binding response | 0.216 RU |
